Experimental data gathered from unrelated publications.
Sample: plasma

CC[C@H](C)[C@H](NC(=O)[C@H](CC(C)C)NC(=O)[C@H](Cc1c[nH]c2ccccc12)NC(=O)[C@H](C)NC(=O)[C@@H](NC(=O)[C@H](Cc1ccccc1)NC(=O)[C@H](CC(=O)O)NC(=O)[C@H](CCCNC(=N)N)NC(=O)[C@H](C)NC(=O)[C@H](C)NC(=O)[C@H](CC(C)C)NC(=O)[C@H](C)NC(=O)[C@H](CC(=O)O)NC(=O)[C@H](CC(C)C)NC(=O)[C@@H](NC(=O)[C@@H](NC(=O)[C@H](C)NC(=O)[C@H](CC(C)C)NC(=O)[C@H](CCC(=O)O)NC(=O)[C@H](CO)NC(=O)[C@H](CO)NC(=O)[C@H](Cc1ccccc1)NC(=O)[C@@H](NC(=O)CNC(=O)[C@H](CCC(=O)O)NC(=O)CNC(=O)[C@@H](N)Cc1c[nH]cn1)[C@@H](C)O)[C@@H](C)O)[C@@H](C)CC)[C@@H](C)CC)C(=O)N[C@@H](C)C(=O)N[C@H](C(=O)N[C@@H](CCCCN)C(=O)N[C@H](C(=O)N[C@H](C(=O)N[C@@H](CC(=O)O)C(=O)N[C@@H](CCCCN)C(=O)N[C@@H](CCCCN)C(=O)O)[C@@H](C)O)[C@@H](C)CC)[C@@H](C)O  tmax (healthy human subjects; subcutaneous, 10 mg once weekly, day 36 after 6 doses, steady state, median): 8 h
CCCOc1ccc(S(N)(=O)=O)cc1-c1nc2c(CCC)nn(C)c2c(=O)[nH]1  Tmax (median) (healthy male humans; oral, 200 mg udenafil): 2 h
CC[C@H](C)[C@H](NC(=O)[C@H](CC(C)C)NC(=O)[C@H](Cc1c[nH]c2ccccc12)NC(=O)[C@H](C)NC(=O)[C@@H](NC(=O)[C@H](Cc1ccccc1)NC(=O)[C@H](CC(=O)O)NC(=O)[C@H](CCCNC(=N)N)NC(=O)[C@H](C)NC(=O)[C@H](C)NC(=O)[C@H](CC(C)C)NC(=O)[C@H](C)NC(=O)[C@H](CC(=O)O)NC(=O)[C@H](CC(C)C)NC(=O)[C@@H](NC(=O)[C@@H](NC(=O)[C@H](C)NC(=O)[C@H](CC(C)C)NC(=O)[C@H](CCC(=O)O)NC(=O)[C@H](CO)NC(=O)[C@H](CO)NC(=O)[C@H](Cc1ccccc1)NC(=O)[C@@H](NC(=O)CNC(=O)[C@H](CCC(=O)O)NC(=O)CNC(=O)[C@@H](N)Cc1cnc[nH]1)[C@@H](C)O)[C@@H](C)O)[C@@H](C)CC)[C@@H](C)CC)C(=O)N[C@@H](C)C(=O)N[C@H](C(=O)N[C@@H](CCCCN)C(=O)N[C@H](C(=O)N[C@H](C(=O)N[C@@H](CC(=O)O)C(=O)N[C@@H](CCCCN)C(=O)N[C@@H](CCCCN)C(=O)N[C@@H](CCCCN)C(=O)N[C@@H](CCCCN)C(=O)N[C@@H](CCCCN)C(=O)N[C@@H](CCCCN)C(N)=O)[C@@H](C)O)[C@@H](C)CC)[C@@H](C)O  tmax (healthy humans; subcutaneous, 5 mg once weekly, 6 doses, day 36, median): 12 h
CC(OC1OC(C(=O)O)C(O)C(O)C1O)c1nc(-c2ccc3c(c2)CCC3NC(=O)c2cnn(C)c2)no1 (stereo not shown)  tmax (human; oral, 20 mg of aficamten, radioprofiling): 24 h
CN1CCC[C@]1(C)/C=C/S(=O)(=O)NC(=O)Nc1c2c(cc3c1CCC3)CCC2  Tmax after first dose, median (human; oral, 100 mg twice daily, day 14, multiple ascending dose): 1 h
CCc1cc(Nc2nc(-c3ccc(-n4cnc(C)c4)c(F)c3)cs2)c(C)cc1C  Tmax (human, both sexes; oral, 200 mg, day 1, multiple dose, geometric mean): 4.1 h
Cn1c(=O)oc2ccc(-c3ccc(CC(C#N)NC(=O)C4CNCCCO4)c(F)c3)cc21 (stereo not shown)  Tmax (human volunteers; 60 mg single dose, fasted, median): 0.75 h
O=C(CCc1ccc(CNC(C(=O)OC2CCCC2)C2CCCCC2)cn1)NO (stereo not shown)  Tmax (human; oral, 10 mg, single dose, median): 0.5 h
CCc1c2c(nc3ccc(O)cc13)-c1cc3c(c(=O)n1C2)COC(=O)[C@]3(O)CC  Tmax (human patients; intravenous, 133 mg/m^2 of parent drug): 1.21 h
CC[C@H](C)[C@H](NC(=O)[C@H](CC(C)C)NC(=O)[C@H](Cc1c[nH]c2ccccc12)NC(=O)[C@H](C)NC(=O)[C@@H](NC(=O)[C@H](Cc1ccccc1)NC(=O)[C@H](CC(=O)O)NC(=O)[C@H](CCCNC(=N)N)NC(=O)[C@H](C)NC(=O)[C@H](C)NC(=O)[C@H](CC(C)C)NC(=O)[C@H](C)NC(=O)[C@H](CC(=O)O)NC(=O)[C@H](CC(C)C)NC(=O)[C@@H](NC(=O)[C@@H](NC(=O)[C@H](C)NC(=O)[C@H](CC(C)C)NC(=O)[C@H](CCC(=O)O)NC(=O)[C@H](CO)NC(=O)[C@H](CO)NC(=O)[C@H](Cc1ccccc1)NC(=O)[C@@H](NC(=O)CNC(=O)[C@H](CCC(=O)O)NC(=O)CNC(=O)[C@@H](N)Cc1c[nH]cn1)[C@@H](C)O)[C@@H](C)O)[C@@H](C)CC)[C@@H](C)CC)C(=O)N[C@@H](C)C(=O)N[C@H](C(=O)N[C@@H](CCCCN)C(=O)N[C@H](C(=O)N[C@H](C(=O)N[C@@H](CC(=O)O)C(=O)N[C@@H](CCCCN)C(=O)O)[C@@H](C)O)[C@@H](C)CC)[C@@H](C)O  tmax (healthy human subjects; subcutaneous, 10 mg once weekly, day 36 after 6 doses, steady state, median): 18.1 h

Repeated from above:
CN1CCC[C@]1(C)/C=C/S(=O)(=O)NC(=O)Nc1c2c(cc3c1CCC3)CCC2  Tmax after first dose, median (human; oral, 100 mg twice daily, day 14, multiple ascending dose): 1 h
CCc1cc(Nc2nc(-c3ccc(-n4cnc(C)c4)c(F)c3)cs2)c(C)cc1C  Tmax (human, both sexes; oral, 200 mg, day 1, multiple dose, geometric mean): 4.1 h
